# Measurements gathered from unrelated publications.
# Compare with care: the assays were run in different laboratories. “And” joins repeats or separate records; there may be more than shown. ± gives the spread as reported.
Compound,assay,system,setting,how to read,quantity,value
COc1cc(O)ccc1CCC(c1ccc(O)cc1)c1cc2c(c(C)c1O)OC(c1ccc(O)cc1)CC2 (mixture of isomers),,human blood,"10 µM, added: A23187",,5-HEPE level,35 ± 17 pg/mL
CN(CCC#N)c1nc(NCC[C@H]2CCCN2C)nc2sc(-c3ccccc3)cc12,force-pCa relationship,"C57BL/6N mice, skinned left ventricular papillary fibres","30 µM, 30 min, DMSO -2.459",,Hill slope,-3.33
COc1cc(N2CCN(C(=O)C3CCCN3)CC2)ccc1Nc1ncc(Cl)c(Nc2ccccc2P(C)(C)=O)n1 (stereo not shown),,"NCI-H3122, mouse, H3122 xenograft","oral, 25 mg/kg every two days, 8 doses, 48 h",,tumour volume,126 mm3 and 399 mm3
CC(=O)[O-].O.O.O.O.[Co+2].[O-]c1ccc(Br)cc1C=NCCN1CCOCC1,hydroxyl radical scavenging,,80 µM,,inhibition,15.6%
CN1CCC[C@]1(C)/C=C/S(=O)(=O)NC(=O)Nc1c2c(cc3c1CCC3)CCC2,,"human, whole blood ex vivo","250 mg single dose, 6 h, single ascending dose, added: LPS and ATP",,IL-18 inhibition,104%
COc1ccc2cc3[n+](cc2c1OCCCOC(=O)c1cscn1)CCc1cc2c(cc1-3)OCO2,ELISA,hyperlipidemic hamster,dose not given,,plasma PCSK9 level,decreased
COc1ccc(C(=O)CCc2cc(C(CCc3ccc(O)cc3OC)c3ccc(O)cc3)c(O)cc2OC)cc1 (racemic),,human blood,"3 µM, added: A23187",,5-HEPE level,181 ± 50 pg/mL
O=S(=O)(NCc1ccncc1)c1ccc(C2CCCCC2)cc1,bulk RNA sequencing,"CK-p25 mice, female, microglia","intraperitoneal, 0.3 mg/kg daily for 2 weeks, 336 h",,upregulated genes number,295 genes
COC1CN([C@H]2CC[C@H]([C@@]3(C)Oc4c(Cl)cc(C(=O)NCc5c(SC)cc(C)[nH]c5=O)c(C)c4O3)CC2)C1,"RNA-seq, refers to: FZD7 mouse homolog","mouse, HT-1376 xenograft, whole blood",dose not given,baseline: vehicle,log2 fold change,0.0586
COc1cc2c(NC3CCN(C(C)C)CC3)cc(N3CCOCC3)nc2cc1OCCCN1CCCC1,"TMT proteomics, refers to: YWHAZ","5xFAD mice, hippocampus",dose not given,baseline: wild-type mice,log2 fold change,-0.00601

# Excerpt of the above:
Compound,assay,system,setting,how to read,quantity,value
COc1cc(O)ccc1CCC(c1ccc(O)cc1)c1cc2c(c(C)c1O)OC(c1ccc(O)cc1)CC2 (mixture of isomers),,human blood,"10 µM, added: A23187",,5-HEPE level,35 ± 17 pg/mL
